Published values of several laboratories.
Every numbered part comes from another study and shows a few of its results, in no order. Substitutions count along the parent as printed.

Block 1 — method: RNA Bind-n-Seq; molecule type: RNA; sample: in vitro; tested at: 365 nM; relative to: no-protein control; direction: higher = stronger binding; endpoint: RBNS enrichment (R)
Target: RNA binding protein fox-1 homolog 2, RRM domain, GST-SBP tag (RBFOX2, Homo sapiens, UniProt O43251-10, residues 100-194)
Notes: natural RNA segment, single round, ends assumed
All sequences stand within: GGGAGUUCUACAGUCCGACGAUC … UGGAAUUCUCGGGUGCCAA
Residues (chain): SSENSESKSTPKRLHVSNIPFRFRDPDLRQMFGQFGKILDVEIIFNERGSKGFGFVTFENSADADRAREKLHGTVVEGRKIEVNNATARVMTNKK
AGGAGGGGCCCGUUGUCUCCCUGGCCCUCAAGGCCUCCCACAGUGACUCGGGCUCCUGUGCCCUUAUUCAGGAAAAGCCUCUGUGUCACUGGCUGCCUCCACUCCCACUU: 0.251
UACUUGAAGUACUUGCCUUUUUUGUUUCCUCAGUUUUAUGUUCUUGCAUUAUAAUUUUAUCCUAACCUCCAAAGAUAUUUGCACUGCUUUUAAUUACUGCUGUAUAUUUG: 1.37
AGUGUAUGUGGUCCAUUAGAAAGGUUAAUUCCAACAAAGCAUUUAGUUUACAGAUCAUAAUCCUAAGCAGUCAGGAGAGAAAUACGAACAGAAAUUACAUGAGGAAUAUU: 0.865
GGAAGGGCAUUCAGGGCCCCUGGGCACCGCUUCUGUUGAAGCAGGGGCUUCUGGGCCCCUGGGUAUCCCCACCUGUCGUGGCCACACCUCUGCCUGCCUCAUGCCCCUUC: 0.577
UUGAUUCAUGCCAUUUGAUAAACUUCUGCCUUGUAGUCAUUGUUUGAUGGGACCAACUUGUAAAGUAUGAGCCUUAAAUAAAUCUCCAUGCUGAAAAAUGUGUUCUAAUG: 0.422
GGUGGGAAUCCAGCCUCUGUUAGAUAUGUCCAGAGAUGGAAACUCACUCCCCUACAAAAGAUGGAGCUUAAUGGAGAAAUUGCAACUUUCAUUAAAAAACAAAUUCAGAU: 6.03
UGGCCAUUGUCUCUGGAUCCCCUCAGAAAGCUGCCUCCCCUAGGCAGGUGCCUUUUGGACAGUUGUGCUGAGCCUGGCAUCACAGACACCAGCAUGCACUUCAGGAUCAU: 0.541
UGCCUCCUAACUUUUAUAGUUAUUUUGUUUUAUAUUUCUAAAUUCUUGUAUCAGAUCCAAAGCUCUAUUGUACAGCAAAUUAUUCUUCAAAAUGAUUAUAACCAGUUGCA: 8.2

Block 2 — method: RNA Bind-n-Seq; molecule type: RNA; sample: in vitro; tested at: 200 nM; notes: whole 134-nt RNA, ends assumed; together with: 150 mM KCl; relative to: input library; direction: higher = stronger binding; endpoint: log2 enrichment
Target: Ras GTPase-activating protein-binding protein 1, full length (G3BP1, Homo sapiens, UniProt Q13283)
UniProt Q13283, sequence (whole entry, looked up): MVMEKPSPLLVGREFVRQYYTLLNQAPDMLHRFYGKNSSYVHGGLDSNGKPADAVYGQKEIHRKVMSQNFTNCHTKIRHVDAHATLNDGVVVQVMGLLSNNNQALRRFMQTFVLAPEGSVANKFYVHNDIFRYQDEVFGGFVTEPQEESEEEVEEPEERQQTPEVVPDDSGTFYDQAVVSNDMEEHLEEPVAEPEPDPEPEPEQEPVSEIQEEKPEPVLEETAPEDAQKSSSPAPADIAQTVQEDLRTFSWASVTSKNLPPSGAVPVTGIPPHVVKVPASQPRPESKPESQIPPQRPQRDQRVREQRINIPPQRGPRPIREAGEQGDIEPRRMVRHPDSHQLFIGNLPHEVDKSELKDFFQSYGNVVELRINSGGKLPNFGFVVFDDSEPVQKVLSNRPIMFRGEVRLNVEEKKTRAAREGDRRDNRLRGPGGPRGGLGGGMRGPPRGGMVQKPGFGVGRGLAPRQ
All sequences stand within: GGGAGUUCUACAGUCCGACGAUC … UGGAAUUCUCGGGUGUCAAGG
UUCACAGCCAGCAGGCAUUGGAAUAUGGCACCAAACUCGUUGGAGGAACCACUCCAGGGAAAGGAGGCCAGACACAUCUGGGCUUACCUG: -0.252
UGGGAGGUGGAUUUUGUUUAUUUUUUUAGCUCAUUUCCAGUGGUGGGAAUUUUUUUUUAAUAUGUGUCAUGAAUAAAGUUGUUUUUGAAA: -0.162
UCAUUUUUUUCCCUGCCGGAAUUUUAGCAUUGAUAUGAACCAUGGACAAGUAUAUUCUGCUGCCACAAAGACUGUAAAGUGCUUCAUUUC: 0.13
AAGUCCUGUGCUACACAUCGUAUGUACCGAAUCAAAUUUAAACCCAAACCCCCAAAAAAGUAUUAUGUUACGCCGUUCGGAUCUGCACUU: -0.529
AGUCCUGUGCUACACAUCGUAUGUACCGAAUCGGGUUUUUGGGAAAAAAAGGGAGGGAAAGUAUUAUGUUACGCCGUUCGGAUCUGCACU: 0.0185
CAAGUCCUGUGCUACACAUCGUAUGUACCGAAUCGGUUUGGUUUUUGGAAAAAGGAAAGUAUUAUGUUACGCCGUUCGGAUCUGCACUUC: -0.697
AAGUCCUGUGCUACACAUCGUAUGUACCGAAUCGGGAAAAAAAGGGUUUGGGUGGGAAAGUAUUAUGUUACGCCGUUCGGAUCUGCACUU: 0.242
UCCUGUGCUACACAUCGUAUGUACCGAAUCGGGGUUUUUGGGGUUUUUGGGGAAAGGGGAAAGUAUUAUGUUACGCCGUUCGGAUCUGCA: 0.865
CCUCUGGACGAGACCAGCCAGAUGAGCGACCUCCCGGUGAAGGUGAUCCACGUGGAGAGUGGGAAGAUCCUCACAGGCACAGAUGCCCCC: 0.645

Block 3 — method: protein binding microarray; molecule type: double-stranded DNA, one strand shown; sample: in vitro; tested at: not given; relative to: not given; direction: higher = stronger binding; endpoint: E-score
Target: Histone acetyltransferase KAT6A, winged helix 1, GST fusion (KAT6A, Homo sapiens, UniProt Q92794, residues 1-85)
Notes: 8-mer, flanks averaged, mean of 2 arrays, mostly near background
Construct (chain): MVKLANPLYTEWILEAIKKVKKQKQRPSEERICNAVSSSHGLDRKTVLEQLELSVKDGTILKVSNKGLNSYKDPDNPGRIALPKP
TGTAAAAA: -0.27
AGACAACT: -0.282
ATAGTGAT: -0.0444
TATGCATA: -0.0705
CCGGAAGG: 0.106
AACAGGAA: -0.111
GCCGCGCA: 0.465
GGCCGACC: 0.268
GGGACGGA: 0.233
CCGCCAAC: 0.236
CTGACTAA: -0.0112
ATTCTTCG: -0.0575
CACGCAGG: -0.0492
CCCGCGGA: 0.363
AGCTCCCG: 0.18
ACGACACT: -0.153
GGGCACGA: 0.0163

Block 4 — target: CCNE1, cyclin fold, Cln2 fusion (human); method: yeast growth competition, sequencing; sample: yeast; notes: strong parent motif; relative to: not given; direction: higher = stronger binding; endpoint: normalised enrichment score
Parent: SCAPER docking peptide (human); SNARRSLNFGGST
SNARRSLNPGGST [F9P]: 0.591
SNARRDLNFGGST [S6D]: 0.211
SNARRSLNGGGST [F9G]: -0.591
SNARRSLNFGCST [G11C]: 0.916
SNQRRSLNFGGST [A3Q]: -0.515
SDARRSLNFGGST [N2D]: 0.818
SNARRSLFFGGST [N8F]: 1.09
SNARRSLNFGKST [G11K]: 0.671
SNARRSLNFWGST [G10W]: 1.58
SNARRSLNLGGST [F9L]: 0.291
SNARYSLNFGGST [R5Y]: -0.0757
SNARRSLNFGGWT [S12W]: 1.09
SNARCSLNFGGST [R5C]: -0.108
SNARRSLNFMGST [G10M]: 0.951
SNARRSLNFFGST [G10F]: 0.561
SNARRSLNFGGSS [T13S]: 1.39
SNARRSLNKGGST [F9K]: -0.218
SNARGSLNFGGST [R5G]: -0.169
SNARRQLNFGGST [S6Q]: 4.26

Block 5 — method: DHFR PCA, deep sequencing; sample: yeast; together with: (+)-ABA 0.11 µM; relative to: wild-type fitted maximum; direction: higher = stronger binding; endpoint: relative binding score
Target: ABI1, truncated, D143A, DHFR fusion (Arabidopsis thaliana)
Notes: methotrexate growth selection, single substitutions
Parent: PYL1, truncated, DHFR fusion (Arabidopsis thaliana); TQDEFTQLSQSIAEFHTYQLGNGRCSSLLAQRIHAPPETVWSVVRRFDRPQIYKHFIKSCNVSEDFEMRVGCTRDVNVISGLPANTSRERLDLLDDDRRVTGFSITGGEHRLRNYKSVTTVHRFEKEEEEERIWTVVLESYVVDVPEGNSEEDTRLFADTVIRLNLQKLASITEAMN
V44Y: -1%
E152Q: 21.1%
D48S: 1.07%
D153E: 33.9%
I133M: 31%
W41M: -5.69%
R155F: -4.73%
H16S: 0.289%
P146M: 23.7%
N85S: 59.4%
W41R: 4.74%
E125L: 19.4%
I172V: 58.9%
Q7W: 36.5%
